Measurements pooled from the literature.
Parts stem from different laboratories: compare values within a part only.

Series 1
Target: Ras GTPase-activating protein-binding protein 1, full length (G3BP1, Homo sapiens, UniProt Q13283)
UniProt Q13283, sequence (whole entry, looked up): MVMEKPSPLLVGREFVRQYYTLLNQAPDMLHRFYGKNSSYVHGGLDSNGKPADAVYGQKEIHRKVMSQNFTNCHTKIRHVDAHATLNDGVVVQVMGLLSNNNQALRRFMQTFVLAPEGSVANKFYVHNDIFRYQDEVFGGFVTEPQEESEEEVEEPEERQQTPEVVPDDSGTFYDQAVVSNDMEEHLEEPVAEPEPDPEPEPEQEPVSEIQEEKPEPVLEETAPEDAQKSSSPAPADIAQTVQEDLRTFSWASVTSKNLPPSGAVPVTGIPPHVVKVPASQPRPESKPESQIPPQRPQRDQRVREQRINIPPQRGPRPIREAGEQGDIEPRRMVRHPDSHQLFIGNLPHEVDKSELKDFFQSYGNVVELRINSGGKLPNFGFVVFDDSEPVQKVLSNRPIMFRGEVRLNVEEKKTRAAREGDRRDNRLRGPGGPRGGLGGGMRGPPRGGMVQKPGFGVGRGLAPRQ
Technique: RNA Bind-n-Seq
Form: RNA
Matrix: in vitro
Tested at: 200 nM
Notes: whole 134-nt RNA, ends assumed
Together with: 150 mM LiCl
Relative to: input library
Reading: higher = stronger binding
Endpoint: log2 enrichment
All molecules: 7-deaza-guanosine replaces G
All sequences stand within: GGGAGUUCUACAGUCCGACGAUC … UGGAAUUCUCGGGUGUCAAGG
AGUCCUGUGCUACACAUCGUAUGUACCGAAUCGGGCCCCCGGGCCCCCGGCCCCCGGAAAGUAUUAUGUUACGCCGUUCGGAUCUGCACU: -0.116
CUCAAGUCCUGUGCUACACAUCGUAUGUACCGAAUCGGGGUGGGGUGGUGGGGAAAGUAUUAUGUUACGCCGUUCGGAUCUGCACUUCCA: -0.34
UGGCCCUUCCCCUGGAGCCAUGCUGGGCCCUAGCCCGGGUCCCUCGCCGGGCUCCGCCCACAGCAUGAUGGGGCCCAGCCCAGGGCCGCC: 1.33
GCAGGAAGUAAAAACAAAUGGAAAUGCUUCGGAUAGUGGCAGGGAUGGGGGUUGCUAAGGAAAGGGUGGGAUGGGAGUGGGUAAAGAGUU: 0.32
CCUGUGCUACACAUCGUAUGUACCGAAUCGGCCCCCCCGGGCCCCCCCGGGGCCCCCCCGGAAAGUAUUAUGUUACGCCGUUCGGAUCUG: 0.0765
UAACUUUAGAGGAGGAUCUGAUGGAUAUGGCAGUGGACGUGGAUUUGGGGAUGGCUAUAAUGGGUAUCGAGGAGGACCUGGAGGUGGCAA: -0.0985
UCAAGUCCUGUGCUACACAUCGUAUGUACCGAAUCGGGGUUGGUUGGGUUGGGGAAAGUAUUAUGUUACGCCGUUCGGAUCUGCACUUCC: 0.34
UCAAGUCCUGUGCUACACAUCGUAUGUACCGAAUCGGCCCGGGCCCGGGCCCGGAAAGUAUUAUGUUACGCCGUUCGGAUCUGCACUUCC: -0.954

Series 2
Target: Sal-like protein 4, full length isoform B (SALL4, Homo sapiens, UniProt Q9UJQ4-2, residues 1-616)
Technique: universal PBM
Form: double-stranded DNA, one strand shown
Matrix: in vitro
Tested at: not given
Notes: 8-mer, flanks averaged, mean of replicates
Reading: higher = stronger binding
Endpoint: E-score
GCTTCCCC: -0.335
ATATGCCA: 0.12
TAGGAAGA: 0.0468
GCGCGGCC: -0.311
CGTTTCAG: -0.0002
ATTGACTG: 0.035
AAAAGCGA: 0.117
CTAGCGAG: -0.263
AGGCGGAG: -0.145
ACGGCTAA: 0.0235
AGTTATCA: 0.281
AGACAAGA: 0.107
ATCGGAAC: -0.189
GTATAGAC: 0.227
ATTGTCCC: -0.113
ACGGTGAA: 0.0545
CATGCGAA: 0.102
ACGTGTCA: 0.0778
AGCGTAAA: 0.0787
CTAGCGAA: -0.13
ACCTGTTC: -0.0203
CGCCCGGA: -0.268
GGCTAGCC: -0.325
CATCGTGC: -0.0602
TACAAAGA: 0.289

Series 3
Target: Histone acetyltransferase KAT6A, winged helix 2, GST fusion (KAT6A, Homo sapiens, UniProt Q92794, residues 85-181)
Technique: protein binding microarray
Form: double-stranded DNA, one strand shown
Matrix: in vitro
Tested at: not given
Notes: 8-mer, flanks averaged, mean of 2 arrays, mostly near background
Relative to: not given
Reading: higher = stronger binding
Endpoint: E-score
Construct (chain): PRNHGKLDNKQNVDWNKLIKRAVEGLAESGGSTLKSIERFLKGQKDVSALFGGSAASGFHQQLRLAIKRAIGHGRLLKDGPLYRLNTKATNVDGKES
GCGGAACC: 0.0714
AGACGATG: -0.103
TACACTGA: -0.0722
GAGTGCCA: -0.0593
CTCTAGAG: -0.212
ACCTCTTG: -0.0161
CAATCACC: -0.147
GAAGTGTC: 0.0134
AGCGTGTG: -0.112
CCCACTGC: 0.0771
TCACCAGA: -0.177
AATTCTTC: -0.0808
AGCCGTGG: -0.0387
AGCAAGCT: 0.00432
AAGCCGCG: 0.127
GTTAGCCA: -0.0697
AGAGGGCC: 0.0751
GAGCGATC: -0.0887
ACTTAACG: -0.252
ATGTTCAG: -0.191

Series 4
Target: Interferon regulatory factor 7, full length, phosphomimetic (IRF7, Homo sapiens, UniProt Q92985, residues 1-503, S101K/S471D/S472D/S475D/S476D/S477D/S483D/S484D/S487D)
UniProt Q92985, sequence (whole entry, unmodified, looked up): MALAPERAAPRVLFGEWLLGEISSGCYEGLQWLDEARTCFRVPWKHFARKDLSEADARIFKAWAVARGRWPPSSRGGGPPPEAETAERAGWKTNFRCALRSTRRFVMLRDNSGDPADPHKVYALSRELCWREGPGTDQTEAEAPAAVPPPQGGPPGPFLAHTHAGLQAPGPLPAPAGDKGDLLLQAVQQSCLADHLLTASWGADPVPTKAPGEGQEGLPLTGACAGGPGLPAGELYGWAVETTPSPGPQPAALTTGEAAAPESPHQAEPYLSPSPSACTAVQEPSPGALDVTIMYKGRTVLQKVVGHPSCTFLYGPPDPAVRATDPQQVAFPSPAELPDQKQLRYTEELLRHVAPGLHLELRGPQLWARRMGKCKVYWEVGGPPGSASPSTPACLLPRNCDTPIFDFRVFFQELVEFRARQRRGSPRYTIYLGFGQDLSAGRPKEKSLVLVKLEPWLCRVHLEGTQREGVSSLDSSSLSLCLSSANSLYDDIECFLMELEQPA
Technique: protein-binding microarray
Form: double-stranded DNA, one strand shown
Matrix: in vitro
Tested at: 250 nM
Notes: 60-bp whole probe
Together with: salmon DNA 0.4 mg/ml
Relative to: random background probes
Reading: higher = stronger binding
Endpoint: log fluorescence
All sequences stand within: GCCTAGCAC … GTCTTGATTCGCTTGACGCTGCTG
TCAGATATCGGGTATCGATTAGTGCTA: 0.647 z-score
GACGATCTCAAACTGGAGACGTGCTAG: -0.09 z-score
GACGGTTTCGGGACTGAGGACGTGCTA: 3.69 z-score
GACGATATCAGACTGGAGCCGTGCTAG: -0.49 z-score
TGTTTTTGCTTTCTTTATGCGTGCTAG: 3.42 z-score
TTAGGTATTCTTCTCCTTTAGTGCTAG: 0.205 z-score
TTAGGTATCGACTACCGGTTAGTGCTA: 0.348 z-score
TCATATATACACTTATGACTGTGCTAG: 0.546 z-score
GCCATTTTCCCTCCCTAATTGTGCTAG: 1.71 z-score
AAAGATATAAATGTAACATGGTGCTAG: 0.0173 z-score
GACGGACTGTGGTTTCGGGACGTGCTA: 2.32 z-score
GACGAACTGAGTTGCGAGACGTGCTAG: -0.57 z-score
TTAGATTTCAGAATCGATTAGTGCTAG: 0.859 z-score
TCACCTCACAGTTTGTAACTGTGCTAG: 0.0571 z-score
GAATATATGTATATATGTGTGTGCTAG: 0.0561 z-score
AGCTGTTTCTGTGTCACAGAGTGCTAG: 0.195 z-score
ATCTGCAGCTGACTACACACGTGCTAG: -0.79 z-score
GACGATCTCAGTTTCAAGACGTGCTAG: 0.298 z-score
TTAGCTTTCAGACTGGATTAGTGCTAG: -0.405 z-score

A few entries again (series 3):
AGAGGGCC: 0.0751
CCCACTGC: 0.0771
AAGCCGCG: 0.127
GAGTGCCA: -0.0593
AGACGATG: -0.103
GAGCGATC: -0.0887
ACTTAACG: -0.252
CAATCACC: -0.147
AATTCTTC: -0.0808
